Published values of several laboratories.
Each line is one published result; not all experiments were run side by side. Numbers after ± are the reported error.
Organism: Escherichia coli

Structure (SMILES)	test	test system	setting	MIC
CC[C@H](C)[C@@H]1NC(=O)CNC(=O)[C@H](CCCCN)NC(=O)[C@H](C)NC(=O)[C@H](CCC(=O)O)NC(=O)[C@H](Cc2ccccc2)NC(=O)[C@H](CO)NC(=O)[C@H](CC(C)C)NC(=O)[C@H](C(C)C)NC(=O)[C@H](CC(=O)O)NC(=O)[C@@H](NC(=O)[C@@H](NC(=O)[C@@H](N)C(C)C)[C@@H](C)O)CSSC[C@@H]2NC(=O)[C@H](CO)NC(=O)CNC(=O)CNC(=O)[C@H](CCCCN)NC(=O)[C@H](CCCCN)NC(=O)[C@H](CCCNC(=N)N)NC(=O)[C@H](CC(C)C)NC(=O)[C@H](C)NC(=O)[C@H]([C@@H](C)CC)NC(=O)[C@H](CSSC[C@@H](C(=O)N[C@@H](CCCNC(=N)N)C(=O)N[C@@H](CC(N)=O)C(=O)O)NC(=O)[C@H](C(C)C)NC(=O)[C@H](C)NC(=O)[C@H](C(C)C)NC(=O)CNC(=O)[C@H](CC(N)=O)NC(=O)[C@H](CCC(N)=O)NC2=O)NC(=O)[C@H](Cc2c[nH]cn2)NC(=O)[C@H](CC(C)C)NC(=O)[C@H](C)NC(=O)[C@H](C)NC(=O)[C@H](C)NC(=O)[C@H](CO)NC(=O)[C@H](Cc2c[nH]cn2)NC(=O)[C@H](CC(N)=O)NC(=O)[C@H](C(C)C)NC(=O)[C@H](C)NC1=O	broth microdilution	KCTC 1682	16 h, 37 °C	> 100 µM
CC[C@@H](C)[C@@H](NC(=O)[C@@H](C)NC(=O)[C@H](NC(=O)[C@@H](CC(=O)O)NC(=O)[C@@H](CCCCN)NC(=O)[C@@H](CO)NC(=O)[C@H](NC(=O)[C@@H](CC(N)=O)NC(=O)[C@@H](C)NC(=O)[C@H](NC(=O)[C@@H](CCC(=O)O)NC(=O)[C@@H](CCCCN)NC(=O)[C@H](NC(=O)[C@H](NC(=O)[C@@H](Cc1c[nH]cn1)NC(=O)[C@@H](CCCCN)NC(=O)[C@H](NC(=O)[C@@H](CCCCN)NC(=O)[C@@H](CCCCN)NC(=O)[C@H](NC(=O)[C@@H](CC(C)C)NC(=O)[C@@H](CCCCN)NC(=O)[C@@H](CC(N)=O)NC(=O)[C@@H](Cc1ccccc1)NC(=O)[C@@H](CCCNC(=N)N)NC(=O)[C@@H](CCCCN)NC(=O)[C@@H](CCCNC(=N)N)NC(=O)[C@@H](Cc1ccccc1)NC(=O)CN)C(C)C)C(C)C)[C@H](C)O)[C@H](C)CC)[C@H](C)O)C(C)C)C(C)C)C(=O)N[C@@H](C(=O)N[C@H](C)C(=O)NCC(=O)N[C@H](CO)C(=O)NCC(=O)N[C@@H](C(=O)N[C@H](C)C(=O)N[C@@H](C(=O)NCC(=O)N[C@H](C)C(=O)N[C@H](C)C(=O)N[C@H](CCSC)C(N)=O)C(C)C)C(C)C)C(C)C	broth microdilution	ATCC 25922, CAMHB	–	16 µg/mL
C[C@@H](N)[C@H](O)CCCCCCCC(=O)CCCCCCCCCCCCCC[C@@H](O[C@@H]1O[C@H](CO)[C@@H](O)[C@H](O)[C@H]1O)[C@@H](N)CO	microbial growth, resazurin	ATCC10536	6 h	14.6 µM
CC[C@H](C)[C@H](NC(=O)[C@H](CCCCN)NC(=O)[C@H](CC(C)C)NC(=O)[C@H](C)NC(=O)[C@H](CC(C)C)NC(=O)[C@H](CO)NC(=O)[C@H](C)NC(=O)[C@H](CC(C)C)NC(=O)[C@H](Cc1ccccc1)NC(=O)[C@@H]1CCCN1C(=O)[C@H](CC(C)C)NC(=O)[C@@H](N)Cc1ccccc1)C(=O)N[C@@H](CC(C)C)C(N)=O	–	BAA 2340	10% human serum	> 128 µM
CC(C)C[C@H](NC(=O)[C@H](Cc1ccc(O)cc1)NC(=O)[C@@H]1CCCN1C(=O)[C@H](CCCNC(=N)N)NC(=O)[C@@H]1CCCN1C(=O)[C@H](CCCCN)NC(=O)[C@H](CC(=O)O)NC(=O)[C@@H]1CCCN1C(=O)[C@H](CCCNC(=N)N)NC(=O)C1(N)CCCCC1)C(=O)N1CCC[C@H]1C(=O)N[C@@H](CCCNC(=N)N)C(=O)N1CCC[C@H]1C(=O)N[C@@H](CCCNC(=N)N)C(=O)N1CCC[C@H]1C(=O)N1CCC[C@H]1C(=O)N[C@@H](CCCNC(=N)N)C(=O)N1CCC[C@H]1C(=O)N[C@H](C(=O)N[C@@H](CCCNC(=N)N)C(=O)N[C@@H](CSCC(N)=O)C(=O)NN)C(C)C	bacterial growth	ATCC 25922, 100% Mueller-Hinton broth	90 min, 37 °C, strain ATCC 25922	2.5 ± 1.1 µg/mL
COc1ccc2nc(C)cc(OCC(=O)Nc3ccccc3OC)c2c1	broth microdilution	3	–	> 64 µM
CCCCCCCCCCCCCCCCC(=O)N[C@@H](CCCCN)C(=O)N[C@@H](CCCCN)C(=O)N[C@@H](CCCCN)C(=O)N[C@@H](CCCCN)C(=O)N[C@@H](CCCCN)C(N)=O	broth microdilution	K12, water pH 7	18 h, 37 °C	4 µg/mL
OB(O)c1cnn(-c2cc(Cl)ncn2)c1	bacterial growth	CTX-M-14 ESBL clinical isolate	cefotaxime alone	32 µg/mL
CC[C@H](C)[C@H](NC(=O)[C@H](NC(=O)[C@@H](CCCNC(=N)N)NC(=O)[C@@H](N)COC(=O)[C@@H](NC(=O)[C@@H](Cc1ccccc1)NC)[C@@H](C)CC)[C@@H](C)CC)C(=O)N[C@@H](CO)C(=O)N[C@H]1C(=O)N[C@@H](C)C(=O)N[C@@H](C2CCCCC2)C(=O)N[C@@H]([C@@H](C)CC)C(=O)O[C@H]1C	broth microdilution	ATCC 10798, Mueller-Hinton broth	16 h, 37 °C	> 8 µg/mL
CC(C)C[C@H](NC(=O)[C@H](CC(C)C)NC(=O)[C@H](C)NC(=O)[C@H](NC(=O)[C@H](CO)NC(=O)[C@@H](CCCCN)NC(=O)[C@@H](CC(C)C)NC(=O)[C@@H](N)Cc1ccccc1)[C@@H](O)C(N)=O)C(=O)O	–	ATCC 10798	TFA salt	> 32 µg/mL
CC[C@H](C)[C@H](NC(=O)[C@H](CCN)NC(=O)CCCCCCCCCCCNC(=O)CCCCCOC(=O)c1cn(C2CC2)c2cc(N3CCNCC3)c(F)cc2c1=O)C(=O)N[C@@H](CCN)C(=O)N[C@H](Cc1ccccc1)C(=O)N[C@@H](CC(C)C)C(=O)N[C@@H](CCN)C(=O)N[C@@H](C(=O)N[C@@H](CC(C)C)C(=O)N[C@@H](CO)C(N)=O)C(C)C	–	–	24 h, 37 °C	1.56 µM
CC[C@H](C)[C@@H]1NC(=O)[C@@H]2CSSC[C@@H]3NC(=O)[C@H](C(C)C)NC(=O)CNC(=O)CNC(=O)[C@H](CCCNC(=N)N)NC(=O)[C@H](CCCNC(=N)N)NC(=O)CNC(=O)[C@H](C(C)C)NC(=O)[C@@H]4CSSC[C@H](NC(=O)[C@H](CC(C)C)NC(=O)[C@H](CCCNC(=N)N)NC(=O)CNC(=O)CNC(=O)[C@H](CO)NC(=O)CNC(=O)[C@H](CO)NC(=O)CNC(=O)[C@@H]5CSSC[C@H](NC(=O)[C@H](CC(=O)O)NC(=O)[C@H](CO)NC(=O)[C@H](CC(=O)O)NC(=O)[C@H](CCCNC(=N)N)NC(=O)[C@H](CCCNC(=N)N)NC(=O)[C@H](CSSC[C@H](NC1=O)C(=O)N[C@@H](CCCNC(=N)N)C(=O)NCC(=O)N[C@@H](CC(N)=O)C(=O)NCC(=O)N[C@@H](Cc1ccc(O)cc1)C(=O)N5)NC(=O)[C@H](CCCNC(=N)N)NC(=O)[C@H](CCC(N)=O)NC(=O)[C@H](CC(C)C)NC(=O)[C@H]([C@@H](C)CC)NC(=O)[C@H](CCCCN)NC(=O)[C@@H]1CCCN1C3=O)C(=O)N1CCC[C@H]1C(=O)NCC(=O)N[C@@H](C)C(=O)N2)C(=O)N[C@@H](Cc1ccc(O)cc1)C(=O)N[C@H]1CSSC[C@H](NC(=O)[C@H](Cc2ccccc2)NC(=O)[C@H](CCCNC(=N)N)NC(=O)[C@H](CCCNC(=N)N)NC(=O)[C@H](CCCNC(=N)N)NC1=O)C(=O)N[C@@H](C(C)C)C(=O)N4	–	K12, CAMHB	–	0.8 µM
CCCCCCCCCCCCCC(=O)N[C@@H](Cc1c[nH]c2ccccc12)C(=O)N[C@@H](CCCCN)C(=O)N[C@@H](CCCCN)C(=O)N[C@@H](CCCCN)C(=O)N[C@@H](CCCCN)C(N)=O	broth microdilution	K12, water pH 7	18 h, 37 °C	16 µg/mL
CC[C@H](C)[C@H](NC(=O)[C@H](C)NC(=O)[C@H](C)NC(=O)[C@H](Cc1ccccc1)NC(=O)[C@H](C)NC(=O)CNC(=O)[C@H](Cc1ccccc1)NC(=O)[C@@H](N)Cc1ccccc1)C(=O)N[C@@H](C)C(=O)N[C@@H](CO)C(=O)N[C@@H](CC(C)C)C(=O)N[C@H](C(=O)N[C@H](C(=O)N1CCC[C@H]1C(=O)N[C@@H](CCCCN)C(=O)N[C@@H](CC(C)C)C(=O)N[C@H](C(=O)N[C@@H](CCC(=O)O)C(=O)N[C@@H](CCCCN)C(=O)N[C@H](C(=O)N[C@@H](CCCCN)C(=O)N[C@@H](CCC(N)=O)C(=O)N[C@@H](C)C(=O)N[C@@H](CCCNC(=N)N)C(N)=O)[C@@H](C)CC)[C@@H](C)CC)[C@@H](C)CC)C(C)C	broth microdilution	ATCC 35218	–	> 50 µM
CO[C@@H](C(N)=O)[C@H](NC(=O)c1ccc(NC(=O)c2ccc([N+](=O)[O-])cc2)cc1)C(=O)Nc1ccc(C(=O)Nc2ccc(C(=O)Nc3ccc(C(=O)O)cc3)c(O)c2OC(C)C)cc1	–	WT-3	–	0.06 µg/mL
Cc1cc(N)c2cc(NC(=O)c3ccc4c(-c5cccc(N)c5)cccc4c3)ccc2n1	–	BW25113 wild type	–	> 200 µM
CC[C@H](C)[C@H](NC(=O)[C@H](CC(C)C)NC(=O)CCNC(=O)[C@H](CO)NC(=O)[C@H](CCCNC(=N)N)NC(=O)[C@@H](N)CO)C(=O)N[C@H](C(=O)N[C@@H](Cc1c[nH]cn1)C(=O)N[C@@H](CCC(N)=O)C(=O)N[C@@H](CCCNC(=N)N)C(=O)N[C@@H](CC(C)C)C(=O)N[C@@H](Cc1ccccc1)C(N)=O)C(C)C	broth microdilution	Mueller Hinton broth	–	> 400 µg/mL
NC[C@H]1OB(O)c2c(OCCO)cccc21	–	LeuRS D342E, G333D, D345N or V335D	–	> 250 µM
CC[C@@H](C)[C@@H](NC(=O)[C@@H](C)NC(=O)[C@@H](CCCCN)NC(=O)[C@@H](CC(C)C)NC(=O)[C@@H](C)NC(=O)[C@H](NC(=O)[C@@H](Cc1c[nH]cn1)NC(=O)[C@@H](CC(C)C)NC(=O)[C@H](NC(=O)[C@H](NC(=O)[C@@H](CCCCN)NC(=O)[C@@H](CCCCN)NC(=O)[C@@H](C)NC(=O)[C@@H](CO)NC(=O)[C@@H](CCCCN)NC(=O)[C@@H](Cc1ccccc1)NC(=O)[C@H](NC(=O)[C@@H](CCCCN)NC(=O)[C@@H](CC(C)C)NC(=O)[C@@H](Cc1ccccc1)NC(=O)[C@@H](CO)NC(=O)[C@@H](CCCCN)NC(=O)[C@@H](Cc1c[nH]c2ccccc12)NC(=O)[C@@H](CCCCN)NC(C)=O)[C@H](C)O)[C@H](C)O)C(C)C)[C@H](C)O)C(=O)N[C@H](CO)C(=O)N[C@H](CO)C(N)=O	–	UB1005	–	2 µg/mL
CCCCCCCCCCCCCCCCCCCCCCSCC1OC(OC2C(N)CC(N)C(OC3OC(CN)C(O)CC3N)C2O)C(O)C(N)C1O (stereo not shown)	–	TolC, strain R	–	> 150 µg/mL
CC(C)C[C@H](NC(=O)[C@H](CC(C)C)NC(=O)[C@H](CCCCN)NC(=O)CNC(=O)[C@H](CC(C)C)NC(=O)[C@H](CC(C)C)NC(=O)[C@H](CO)NC(=O)[C@H](CC(C)C)NC(=O)[C@H](CC(C)C)NC(=O)[C@@H]1CCCN1C(=O)[C@H](CC(C)C)NC(=O)[C@H](CC(C)C)NC(=O)CN)C(N)=O	broth microdilution	K12	–	25 µM
CCCCCCSCC1OC(OC2C(N)CC(N)C(OC3OC(CN)C(O)CC3N)C2O)C(O)C(N)C1O (stereo not shown)	–	BL21(DE3) pET22b	–	> 150 µg/mL
CC1C(=NNC(=O)c2ccncc2)C(C)C(c2ccc(Br)cc2)OC1c1ccc(Br)cc1 (stereo not shown)	microbial growth, broth dilution	MTCC443	24 h	12.5 µg/mL
CCCCCCCCCCCC[S+]([O-])CC1OC(OC2C(N)CC(N)C(OC3OC(CN)C(O)CC3N)C2O)C(O)C(N)C1O (mixture of isomers)	–	TolC, strain R	–	2.3 µg/mL
CCO[C@H]1[C@H](O)[C@@H](N)[C@@H](O[C@H]2[C@H](O[C@@H]3O[C@H](CO)[C@@H](O[C@H]4O[C@@H](CN)[C@@H](O)[C@H](O)[C@H]4N)[C@H]3O)[C@@H](O)[C@H](N)C[C@@H]2N)O[C@@H]1CO	broth microdilution	clinical isolate AG 055	–	32 µg/mL

A few entries again:
Structure (SMILES)	test	test system	setting	MIC
CC[C@H](C)[C@H](NC(=O)[C@H](C)NC(=O)[C@H](C)NC(=O)[C@H](Cc1ccccc1)NC(=O)[C@H](C)NC(=O)CNC(=O)[C@H](Cc1ccccc1)NC(=O)[C@@H](N)Cc1ccccc1)C(=O)N[C@@H](C)C(=O)N[C@@H](CO)C(=O)N[C@@H](CC(C)C)C(=O)N[C@H](C(=O)N[C@H](C(=O)N1CCC[C@H]1C(=O)N[C@@H](CCCCN)C(=O)N[C@@H](CC(C)C)C(=O)N[C@H](C(=O)N[C@@H](CCC(=O)O)C(=O)N[C@@H](CCCCN)C(=O)N[C@H](C(=O)N[C@@H](CCCCN)C(=O)N[C@@H](CCC(N)=O)C(=O)N[C@@H](C)C(=O)N[C@@H](CCCNC(=N)N)C(N)=O)[C@@H](C)CC)[C@@H](C)CC)[C@@H](C)CC)C(C)C	broth microdilution	ATCC 35218	–	> 50 µM
